Measurements pooled from the literature.
Each line is one published result; not all experiments were run side by side. ± marks the error that the study gave.
F2: Prothrombin (F2, Bos taurus, UniProt P00735)
PTPN5: Tyrosine-protein phosphatase non-receptor type 5 (PTPN5, Homo sapiens, UniProt P54829)
FLT3: Receptor-type tyrosine-protein kinase FLT3 (FLT3, Homo sapiens, UniProt P36888)
PTPN7: Tyrosine-protein phosphatase non-receptor type 7 (PTPN7, Homo sapiens, UniProt P35236)

By UniProt entry, the sequences of proteins in these tests, tags left out. Residues count along the entry.
UniProt O75874, whole entry R132C: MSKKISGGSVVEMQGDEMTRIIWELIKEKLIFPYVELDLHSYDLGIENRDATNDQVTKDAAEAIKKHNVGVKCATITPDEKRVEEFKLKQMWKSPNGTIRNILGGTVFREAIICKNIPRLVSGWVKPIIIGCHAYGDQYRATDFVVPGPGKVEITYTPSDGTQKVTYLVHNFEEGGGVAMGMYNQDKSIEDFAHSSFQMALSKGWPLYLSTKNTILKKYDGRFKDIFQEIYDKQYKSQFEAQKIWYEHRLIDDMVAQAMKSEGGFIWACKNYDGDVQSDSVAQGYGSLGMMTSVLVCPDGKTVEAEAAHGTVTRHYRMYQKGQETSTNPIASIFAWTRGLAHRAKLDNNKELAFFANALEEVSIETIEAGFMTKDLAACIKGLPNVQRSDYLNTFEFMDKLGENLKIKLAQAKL
UniProt O75874, whole entry partner: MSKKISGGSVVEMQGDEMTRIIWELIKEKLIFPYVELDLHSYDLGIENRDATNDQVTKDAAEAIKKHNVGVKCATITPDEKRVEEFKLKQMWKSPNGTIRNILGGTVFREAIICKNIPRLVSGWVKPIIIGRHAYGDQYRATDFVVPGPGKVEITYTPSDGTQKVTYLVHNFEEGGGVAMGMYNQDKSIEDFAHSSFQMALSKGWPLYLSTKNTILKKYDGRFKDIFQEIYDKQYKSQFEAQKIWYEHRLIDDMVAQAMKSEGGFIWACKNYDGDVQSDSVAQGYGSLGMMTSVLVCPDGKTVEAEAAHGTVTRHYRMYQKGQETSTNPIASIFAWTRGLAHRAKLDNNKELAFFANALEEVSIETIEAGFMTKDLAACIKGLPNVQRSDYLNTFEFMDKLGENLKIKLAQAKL
UniProt P00533, 25-1210 T790M/L858R limits assumed: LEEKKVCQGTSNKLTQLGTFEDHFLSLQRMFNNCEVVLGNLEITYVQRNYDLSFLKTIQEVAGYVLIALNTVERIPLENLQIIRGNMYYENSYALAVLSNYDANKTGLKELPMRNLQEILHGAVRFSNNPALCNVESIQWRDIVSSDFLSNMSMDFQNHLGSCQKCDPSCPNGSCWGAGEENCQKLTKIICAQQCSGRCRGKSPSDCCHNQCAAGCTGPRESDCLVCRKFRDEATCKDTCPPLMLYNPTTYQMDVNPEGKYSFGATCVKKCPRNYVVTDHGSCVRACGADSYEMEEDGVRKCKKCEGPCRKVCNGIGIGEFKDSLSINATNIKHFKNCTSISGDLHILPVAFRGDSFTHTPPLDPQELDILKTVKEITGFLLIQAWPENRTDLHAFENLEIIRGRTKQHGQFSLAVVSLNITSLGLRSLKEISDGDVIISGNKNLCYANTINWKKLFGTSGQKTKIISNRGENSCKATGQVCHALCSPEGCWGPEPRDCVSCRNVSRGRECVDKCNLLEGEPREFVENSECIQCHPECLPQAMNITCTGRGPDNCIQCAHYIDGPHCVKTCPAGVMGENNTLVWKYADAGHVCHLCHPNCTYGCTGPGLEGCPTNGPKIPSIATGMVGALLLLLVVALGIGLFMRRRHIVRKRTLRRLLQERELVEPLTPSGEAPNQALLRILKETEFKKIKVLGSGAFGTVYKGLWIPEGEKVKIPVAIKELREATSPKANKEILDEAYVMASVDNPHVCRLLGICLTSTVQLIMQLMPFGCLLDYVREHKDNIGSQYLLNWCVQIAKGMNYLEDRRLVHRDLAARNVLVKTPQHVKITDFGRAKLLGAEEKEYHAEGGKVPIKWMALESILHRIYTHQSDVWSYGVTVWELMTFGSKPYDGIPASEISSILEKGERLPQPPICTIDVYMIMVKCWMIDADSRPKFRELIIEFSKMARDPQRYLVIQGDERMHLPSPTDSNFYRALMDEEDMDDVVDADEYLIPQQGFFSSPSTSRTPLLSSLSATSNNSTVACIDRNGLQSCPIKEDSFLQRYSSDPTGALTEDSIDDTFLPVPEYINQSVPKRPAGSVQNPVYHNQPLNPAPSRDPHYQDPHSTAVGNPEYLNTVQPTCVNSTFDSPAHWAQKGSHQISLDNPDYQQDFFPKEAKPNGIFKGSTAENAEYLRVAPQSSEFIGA
UniProt P21860, 20-1342 limits assumed: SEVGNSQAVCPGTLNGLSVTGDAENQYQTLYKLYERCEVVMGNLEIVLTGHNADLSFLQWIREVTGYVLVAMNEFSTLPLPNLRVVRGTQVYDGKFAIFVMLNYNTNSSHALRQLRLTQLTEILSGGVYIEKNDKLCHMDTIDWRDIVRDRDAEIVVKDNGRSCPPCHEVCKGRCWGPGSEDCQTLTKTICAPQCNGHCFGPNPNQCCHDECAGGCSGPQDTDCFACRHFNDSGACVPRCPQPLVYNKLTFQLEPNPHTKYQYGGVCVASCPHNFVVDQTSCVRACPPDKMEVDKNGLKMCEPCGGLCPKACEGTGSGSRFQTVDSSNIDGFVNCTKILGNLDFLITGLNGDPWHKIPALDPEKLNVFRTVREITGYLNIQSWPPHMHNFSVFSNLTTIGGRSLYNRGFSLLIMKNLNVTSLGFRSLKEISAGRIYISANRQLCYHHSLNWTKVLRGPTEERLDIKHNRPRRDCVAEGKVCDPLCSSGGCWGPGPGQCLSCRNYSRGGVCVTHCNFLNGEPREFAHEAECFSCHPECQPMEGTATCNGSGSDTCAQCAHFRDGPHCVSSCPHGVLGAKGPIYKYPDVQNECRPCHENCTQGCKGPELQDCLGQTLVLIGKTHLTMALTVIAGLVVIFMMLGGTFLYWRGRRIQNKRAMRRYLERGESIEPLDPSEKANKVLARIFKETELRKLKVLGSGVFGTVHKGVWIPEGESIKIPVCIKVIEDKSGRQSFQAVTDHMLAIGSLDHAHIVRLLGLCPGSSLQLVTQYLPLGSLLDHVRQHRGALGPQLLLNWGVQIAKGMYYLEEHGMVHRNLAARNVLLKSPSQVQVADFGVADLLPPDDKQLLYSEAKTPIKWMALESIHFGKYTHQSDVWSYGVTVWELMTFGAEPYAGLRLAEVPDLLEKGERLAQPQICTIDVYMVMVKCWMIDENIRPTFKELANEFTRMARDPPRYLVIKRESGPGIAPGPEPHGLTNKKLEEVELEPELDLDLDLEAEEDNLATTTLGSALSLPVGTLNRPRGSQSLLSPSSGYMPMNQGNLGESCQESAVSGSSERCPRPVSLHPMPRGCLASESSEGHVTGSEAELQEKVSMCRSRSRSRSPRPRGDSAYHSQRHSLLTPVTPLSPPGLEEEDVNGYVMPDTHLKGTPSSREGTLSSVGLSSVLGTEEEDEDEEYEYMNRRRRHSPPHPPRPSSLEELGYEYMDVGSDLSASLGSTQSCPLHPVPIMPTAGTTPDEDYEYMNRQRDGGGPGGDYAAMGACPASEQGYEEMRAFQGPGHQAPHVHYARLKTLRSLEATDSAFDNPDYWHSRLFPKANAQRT
UniProt P26040, whole entry: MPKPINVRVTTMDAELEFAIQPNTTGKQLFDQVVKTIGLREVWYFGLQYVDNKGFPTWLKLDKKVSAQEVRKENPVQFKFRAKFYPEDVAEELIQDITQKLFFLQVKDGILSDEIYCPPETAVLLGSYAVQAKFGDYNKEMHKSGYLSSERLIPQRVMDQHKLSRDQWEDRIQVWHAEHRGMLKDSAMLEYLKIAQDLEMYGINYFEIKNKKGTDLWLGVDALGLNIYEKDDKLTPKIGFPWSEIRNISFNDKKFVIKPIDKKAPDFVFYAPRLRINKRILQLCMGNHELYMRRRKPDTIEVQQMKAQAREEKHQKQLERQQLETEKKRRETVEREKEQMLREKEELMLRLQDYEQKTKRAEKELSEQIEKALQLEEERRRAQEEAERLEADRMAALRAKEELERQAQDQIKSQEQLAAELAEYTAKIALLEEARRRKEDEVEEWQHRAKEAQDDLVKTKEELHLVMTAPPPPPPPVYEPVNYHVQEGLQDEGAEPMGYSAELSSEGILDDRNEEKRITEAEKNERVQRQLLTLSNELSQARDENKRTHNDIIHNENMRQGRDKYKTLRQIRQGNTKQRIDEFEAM
UniProt Q8TCT1, 1-292 isoform 3: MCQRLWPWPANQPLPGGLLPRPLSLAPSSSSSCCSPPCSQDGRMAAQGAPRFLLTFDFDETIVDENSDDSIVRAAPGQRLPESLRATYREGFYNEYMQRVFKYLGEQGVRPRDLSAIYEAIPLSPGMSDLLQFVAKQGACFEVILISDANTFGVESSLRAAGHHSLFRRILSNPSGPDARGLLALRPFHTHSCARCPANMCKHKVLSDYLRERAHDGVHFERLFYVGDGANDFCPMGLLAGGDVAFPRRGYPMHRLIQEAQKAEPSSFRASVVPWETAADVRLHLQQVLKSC
UniProt P40261, whole entry: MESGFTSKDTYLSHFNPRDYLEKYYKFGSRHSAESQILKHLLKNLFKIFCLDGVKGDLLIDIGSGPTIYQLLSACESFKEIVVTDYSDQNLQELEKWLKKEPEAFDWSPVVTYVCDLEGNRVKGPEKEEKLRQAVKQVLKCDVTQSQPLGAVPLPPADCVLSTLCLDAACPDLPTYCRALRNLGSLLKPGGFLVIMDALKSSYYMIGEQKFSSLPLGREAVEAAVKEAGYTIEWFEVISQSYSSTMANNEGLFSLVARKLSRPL
UniProt Q8K3Y3, whole entry, looked up: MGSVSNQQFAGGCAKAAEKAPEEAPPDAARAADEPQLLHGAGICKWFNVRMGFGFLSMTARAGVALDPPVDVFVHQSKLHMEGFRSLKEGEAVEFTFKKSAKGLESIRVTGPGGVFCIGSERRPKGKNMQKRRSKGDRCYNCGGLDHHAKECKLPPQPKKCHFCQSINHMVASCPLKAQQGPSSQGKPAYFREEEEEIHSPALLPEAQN
UniProt P37023, 22-503 limits assumed: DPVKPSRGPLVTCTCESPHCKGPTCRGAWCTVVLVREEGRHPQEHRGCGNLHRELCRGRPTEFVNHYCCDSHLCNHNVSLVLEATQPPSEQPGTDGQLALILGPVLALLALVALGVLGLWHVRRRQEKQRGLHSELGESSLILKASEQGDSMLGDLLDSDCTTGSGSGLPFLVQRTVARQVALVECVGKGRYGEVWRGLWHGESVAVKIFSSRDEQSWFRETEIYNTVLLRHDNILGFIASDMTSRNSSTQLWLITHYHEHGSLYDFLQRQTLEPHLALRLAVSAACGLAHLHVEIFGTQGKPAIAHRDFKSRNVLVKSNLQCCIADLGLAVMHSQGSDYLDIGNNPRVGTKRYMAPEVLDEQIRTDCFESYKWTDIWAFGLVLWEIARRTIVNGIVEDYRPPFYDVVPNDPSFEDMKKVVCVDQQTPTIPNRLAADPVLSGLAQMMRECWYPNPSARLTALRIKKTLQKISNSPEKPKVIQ
UniProt P43378, whole entry, looked up: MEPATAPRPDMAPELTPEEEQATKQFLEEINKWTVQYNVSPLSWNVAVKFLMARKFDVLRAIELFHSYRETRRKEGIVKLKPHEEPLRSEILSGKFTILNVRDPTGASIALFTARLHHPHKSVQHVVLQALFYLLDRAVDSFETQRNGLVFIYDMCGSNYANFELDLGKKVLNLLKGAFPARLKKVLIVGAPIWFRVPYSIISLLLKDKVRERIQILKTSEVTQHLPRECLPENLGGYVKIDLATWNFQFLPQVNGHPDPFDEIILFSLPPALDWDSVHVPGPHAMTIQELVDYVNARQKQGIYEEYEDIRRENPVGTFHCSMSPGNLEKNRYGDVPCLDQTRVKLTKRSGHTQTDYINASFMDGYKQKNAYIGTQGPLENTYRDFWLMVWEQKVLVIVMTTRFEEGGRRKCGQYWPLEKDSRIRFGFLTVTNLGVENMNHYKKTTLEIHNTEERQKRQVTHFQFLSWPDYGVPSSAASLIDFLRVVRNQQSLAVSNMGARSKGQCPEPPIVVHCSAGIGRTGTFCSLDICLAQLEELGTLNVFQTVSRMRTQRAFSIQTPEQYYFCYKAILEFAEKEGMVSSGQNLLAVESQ
UniProt Q9NVS9, whole entry: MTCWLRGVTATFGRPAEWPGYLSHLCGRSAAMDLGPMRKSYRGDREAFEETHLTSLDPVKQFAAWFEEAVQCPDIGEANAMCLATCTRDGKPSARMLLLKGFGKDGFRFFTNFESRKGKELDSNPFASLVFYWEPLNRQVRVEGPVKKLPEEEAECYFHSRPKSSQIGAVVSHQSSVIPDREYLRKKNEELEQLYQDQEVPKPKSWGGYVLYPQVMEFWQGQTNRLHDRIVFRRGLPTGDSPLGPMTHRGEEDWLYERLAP
UniProt Q13131, whole entry: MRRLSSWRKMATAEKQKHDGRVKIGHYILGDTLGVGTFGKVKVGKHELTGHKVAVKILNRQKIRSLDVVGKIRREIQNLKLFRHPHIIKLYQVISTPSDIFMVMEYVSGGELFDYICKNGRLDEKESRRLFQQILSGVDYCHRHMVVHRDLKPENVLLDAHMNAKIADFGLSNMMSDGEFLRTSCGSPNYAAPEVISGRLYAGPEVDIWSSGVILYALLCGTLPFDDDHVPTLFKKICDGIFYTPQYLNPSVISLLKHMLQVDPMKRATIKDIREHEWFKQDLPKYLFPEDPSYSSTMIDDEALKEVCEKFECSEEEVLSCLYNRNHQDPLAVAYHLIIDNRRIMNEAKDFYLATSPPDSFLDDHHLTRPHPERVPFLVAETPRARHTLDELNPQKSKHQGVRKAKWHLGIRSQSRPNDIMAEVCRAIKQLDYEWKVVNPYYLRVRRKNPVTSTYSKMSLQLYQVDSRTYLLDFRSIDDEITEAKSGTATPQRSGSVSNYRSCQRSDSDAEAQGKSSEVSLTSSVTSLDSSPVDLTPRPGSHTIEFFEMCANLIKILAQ

Cc1cccc(NC(=O)c2nn(Cc3cnc[nH]3)c3c2CN(C(=O)c2ccc[nH]2)CC3)c1
IC50 (Isocitrate dehydrogenase [NADP] cytoplasmic (IDH1, Homo sapiens, UniProt O75874, R132C); 2-HG production, inhibitor, LC-MS/MS; HT-1080): > 36 µM

Cc1nc2ncnn2c(N(C)C)c1Cc1cccc(N)c1
IC50 (Ectonucleotide pyrophosphatase/phosphodiesterase family member 1 (ENPP1, Homo sapiens, UniProt P22413); cGAMP hydrolysis, inhibitor, Lumit immunoassay; together with: cGAMP): 0.108 µM

O=C1CCC(N2C(=O)c3cccc(NCCOCCOCCOCCN4CCN(c5ccc(-c6ccc7c(c6)C(=O)N(C(C(=O)Nc6nccs6)c6ccccc6)C7)cn5)CC4)c3C2=O)C(=O)N1 (stereo not shown)
IC50 (Epidermal growth factor receptor (EGFR, Homo sapiens, UniProt P00533, L858R/T790M); enzyme activity, HTRF): 0.045 µM

Cc1csc(-c2cc3ccc(OCc4c(F)c(F)c(F)c(F)c4F)cc3oc2=O)n1
IC50 (F2; enzyme activity; 30 min preincubation, together with: pyroGlu-Pro-Arg-pNA): > 20 µM

O=c1/c(=C/c2ccc(-c3ccccc3[N+](=O)[O-])o2)sc2nc3cc(Br)cnc3n12
IC50 (PTPN5; phosphatase activity, inhibitor; together with: OMFP): > 100 µM

CC(C)C[C@@H](NC(=O)[C@H](O)Cc1ccccc1)C(=O)N1[C@H](C(=O)NCCC2=CCN(C(=N)N)C2)C[C@@H]2CC[C@@H](O[C@H]3OC[C@@H](O)[C@H](O)[C@H]3O)C[C@@H]21
IC50 (F2; enzyme activity, inhibitor): 30 µg/mL

C=CC(=O)Nc1cc(-c2nn(C3CCC(N4CCN(C(C)=O)CC4)CC3)c3ncnc(N)c23)ccc1Oc1ccccc1 (stereo not shown)
IC50 (Receptor tyrosine-protein kinase erbB-3 (ERBB3, Homo sapiens, UniProt P21860); ATP-site binding, LanthaScreen TR-FRET; 3 h): 0.023 µM

O=C1C=C(NCCc2cc(Br)c(O)c(Br)c2)C(=O)c2ncccc21
IC50 (Ezrin (Ezr, Mus musculus, UniProt P26040); ezrin phosphorylation, inhibitor; 30 min, 30 °C, together with: PKCι): 8.1 µM

CN(C)S(=O)(=O)c1cccc(-n2sc3ccccc3c2=O)c1
IC50 (Phosphoethanolamine/phosphocholine phosphatase (Homo sapiens, UniProt Q8TCT1); enzyme activity, inhibitor, phosphate release; 60 min, pH 6.7, together with: phosphoethanolamine 62.5 µM): 0.14 ± 0.03 µM

COc1cc(N2CCN(C)CC2)ccc1Nc1ncc2c(n1)N(C)c1ccccc1C(=O)N2C(C)C
IC50 (Bromodomain-containing protein 4, BD1 (BRD4, Homo sapiens, UniProt O60885); inhibitor): 2.19 µM

O=[N+]([O-])c1cccc(C2Nc3ccc(Cl)cc3C3C=CCC32)c1 (stereo not shown)
IC50 (F2; enzyme activity; 30 min preincubation, together with: pyroGlu-Pro-Arg-pNA): > 20 µM

C[n+]1cccc2c(N)cccc21
IC50 (Nicotinamide N-methyltransferase (NNMT, Homo sapiens, UniProt P40261); enzyme activity, inhibitor): < 0.01 µM

O=C(O)c1ccc(/C=C2\SC(=S)N(c3cccc(C(F)(F)F)c3)C2=O)cc1
IC50 (Cystic fibrosis transmembrane conductance regulator (CFTR, Homo sapiens, UniProt P13569); iodide influx, inhibitor, microfluidic YFP fluorescence; FRT cells expressing CFTR; 10 min, together with: 5 µM forskolin, 140 mM iodide): 0.65 µM

O=c1cc(O)n(Cc2ccco2)c(=S)[nH]1
IC50 (Protein lin-28 homolog A, with pre-let-7d (Mus musculus, UniProt Q8K3Y3); HTS dose-response): < 1 µM

CCN1CCN(Cc2ccc(NC(=O)c3ccc(C)c(Oc4ncnc5cc(OC)c(OC)cc45)c3)cc2C(F)(F)F)CC1
IC50 (FLT3; enzyme activity, Z'-LYTE; together with: ATP at Km): 0.633 µM

CC1(C)CC(=O)c2c(oc3c(Br)cc(NS(=O)(=O)c4ccccc4)cc23)C1
IC50 (F2; enzyme activity; 30 min preincubation, together with: pyroGlu-Pro-Arg-pNA): > 20 µM

COc1cc(-c2nc3ccc(C(=O)NCCCN4CCN(C)C(c5ccccc5)C4)cc3n2C2CCC2)cc(OC)c1OC (stereo not shown)
IC50 (Activin receptor type-1-like (ACVRL1, Homo sapiens, UniProt P37023); target engagement, NanoBRET; HEK293): > 30 µM

O=c1/c(=C/c2ccccc2Cl)sc2nc3cc(Br)cnc3n12
IC50 (PTPN7; phosphatase activity, inhibitor; together with: OMFP): 35 µM

CN1C(=O)c2ccccc2N(C)c2nc(Nc3ccc(N4CCC(O)CC4)cc3)ncc21
IC50 (NUAK family SNF1-like kinase 1 (NUAK1, Homo sapiens, UniProt O60285); kinase activity): < 0.1 µM

COc1cccc(CNC(=O)Nc2ccc(-c3cn[nH]c3)cc2)c1
IC50 (LIM domain kinase 1 (LIMK1, Homo sapiens, UniProt P53667); enzyme activity, inhibitor): > 10 µM

CCCCCCCCCCCCCC=C[C@@H](O)[C@H](CO[C@@H]1O[C@H](CO)[C@@H](O[C@@H]2O[C@H](CO)[C@H](O)[C@H](O[C@]3(C(=O)O)C[C@H](O)[C@@H](NC(C)=O)[C@H]([C@H](O)[C@@H](CO)O[C@]4(C(=O)O)C[C@H](O)[C@@H](NC(C)=O)[C@H]([C@H](O)[C@H](O)CO)O4)O3)[C@H]2O)[C@H](O)[C@H]1O)NC(=O)CCCCCCCCCCCCCCCCC
IC50 (Cd1d1 (Mus musculus, UniProt P11609); binding): 0.095 µM

COc1cc(N2CCN(C)CC2)ccc1Nc1ncc2c(n1)N(C)c1ccccc1C(=O)N2
IC50 (Tyrosine-protein kinase FRK (FRK, Homo sapiens, UniProt P42685); kinase activity, inhibitor; off-target): 0.264 µM

c1ccc2[nH]c3c(N=NC4=NCCN4)c4ccccc4c-3nc2c1
IC50 (Ribosyldihydronicotinamide dehydrogenase [quinone] (NQO2, Homo sapiens, UniProt P16083); enzyme activity, inhibitor; no BSA, together with: 200 µM NRH, DCPIP): 0.76 ± 0.12 µM

Cc1nn(-c2ccnc(Nc3ccc(-c4csc5c(=O)cc(N6CCOCC6)oc45)cc3)n2)cc1CN1CC(O)C1
IC50 (Tyrosine-protein kinase SYK (SYK, Homo sapiens, UniProt P43405); enzyme activity, inhibitor): 0.02 µM

O=C(ON1C(=O)C2CN(C(=O)N3CCOCC3)CCN2C1=O)N1CCC(CCc2ccc(Cl)cc2)CC1 (stereo not shown)
IC50 (Palmitoyl-protein thioesterase 1 (Homo sapiens, UniProt P50897); competitive ABPP; HEK293T transfected with PPT1): 0.5 µM

CCCc1nc2sc3c(NCCc4ccc(OC)c(OC)c4)ncnc3c2c2c1CCC2
IC50 (Ubiquitin carboxyl-terminal hydrolase 28 (USP28, Homo sapiens, UniProt Q96RU2); together with: ubiquitin-rhodamine): 0.12 µM

CCCCCC/C=C\CC(=O)N[C@@H](Cc1ccccc1)[C@@H](O)CC(=O)N[C@H](C(=O)N[C@@H](CO)[C@@H](O)CC(=O)N[C@H](C(=O)N[C@@H]1C=CC(=O)N[C@@H](C(C)C)C(=O)N(C)[C@@H](Cc2ccc(O)cc2)C(=O)OC1)C(C)C)C(C)C
IC50 (Calpain-1 catalytic subunit (CAPN1, Homo sapiens, UniProt P07384); enzyme activity, inhibitor, fluorescence; 1 h, 37 °C): 0.029 ± 0.002 µM

CCc1ccc(C(=O)NCCCCC(NC(=O)C(Cc2ccc(C(F)(F)P(=O)(O)O)cc2)NC(C)=O)C(N)=O)cc1 (stereo not shown)
IC50 (Tyrosine-protein phosphatase non-receptor type 9 (PTPN9, Homo sapiens, UniProt P43378); enzyme activity, inhibitor; pH 7.0, 25 °C, together with: pNPP 6 mM): 9 µM

Cc1cc(C)c2nc3s/c(=C\c4ccc(-c5ccccc5C(=O)O)o4)c(=O)n3c2c1
IC50 (PTPN7; phosphatase activity, inhibitor; together with: OMFP): 1.8 µM

O=C(CCc1cn(-c2ccccc2)nc1-c1ccccc1)Oc1c(F)c(F)c(F)c(F)c1F
IC50 (Pyridoxine-5'-phosphate oxidase (PNPO, Homo sapiens, UniProt Q9NVS9); enzyme activity, inhibitor): ~5 µM

O=c1/c(=C/c2ccc(-c3cc(Cl)cc(Cl)c3)o2)sc2nc3cc(Br)cnc3n12
IC50 (PTPN5; phosphatase activity, inhibitor; together with: OMFP): > 100 µM

CN1C/C(=C\c2ccccn2)C(=O)[C@@H](Cc2ccccn2)C1
IC50 (5'-AMP-activated protein kinase catalytic subunit alpha-1, with beta1 gamma1 subunits (PRKAA1, Homo sapiens, UniProt Q13131); enzyme activity, inhibitor, Z'-LYTE; AMPK A1/B1/G1 complex): 10 µM

Cc1sc2c(c1C)C(c1ccc(Cl)cc1)=N[C@@H](CC(=O)OC(C)(C)C)c1nnc(C)n1-2
IC50 (Mitogen-activated protein kinase 7 (MAPK7, Homo sapiens, UniProt Q13164); kinase activity): > 10 µM

COc1cc2ncc(-c3cccc(NC4CCNC4)n3)n2cc1-c1cn[nH]c1 (stereo not shown)
IC50 (FLT3; kinase activity, inhibitor): < 0.0005 µM

CC(C)NC(=O)Nc1ccc2c(c1)C(=O)N([C@H](C)CO)C[C@@H](C)[C@H](CN(C)S(=O)(=O)c1ccc(Cl)cc1)O2
IC50 (Scavenger receptor class B member 1 (Mus musculus, UniProt Q61009); DiI-HDL uptake, inhibitor; ldlA[mSR-BI] cells; resynthesized or repurified compound): 0.1 ± 0.02 µM

O=C(Nc1ccc(-c2nc3ccccc3o2)c(O)c1)c1ccc(-c2cccc([N+](=O)[O-])c2)o1
IC50 (F2; enzyme activity; 30 min preincubation, together with: pyroGlu-Pro-Arg-pNA): > 20 µM

Cc1ccn(-c2cccc(C(=O)OCC(=O)c3cc(C)n(-c4ccc(S(N)(=O)=O)cc4)c3C)c2)n1
IC50 (Carbonic anhydrase 9 (CA9, Homo sapiens, UniProt Q16790); enzyme activity, inhibitor): 0.151 µM

Repeated from above:
O=c1cc(O)n(Cc2ccco2)c(=S)[nH]1
IC50 (Protein lin-28 homolog A, with pre-let-7d (Mus musculus, UniProt Q8K3Y3); HTS dose-response): < 1 µM

CCN1CCN(Cc2ccc(NC(=O)c3ccc(C)c(Oc4ncnc5cc(OC)c(OC)cc45)c3)cc2C(F)(F)F)CC1
IC50 (FLT3; enzyme activity, Z'-LYTE; together with: ATP at Km): 0.633 µM
